Published values collected from several papers.
Numbered parts are unrelated; each lists some results of a single study.
Chain of UniProt P00519 (whole entry, unmodified, looked up): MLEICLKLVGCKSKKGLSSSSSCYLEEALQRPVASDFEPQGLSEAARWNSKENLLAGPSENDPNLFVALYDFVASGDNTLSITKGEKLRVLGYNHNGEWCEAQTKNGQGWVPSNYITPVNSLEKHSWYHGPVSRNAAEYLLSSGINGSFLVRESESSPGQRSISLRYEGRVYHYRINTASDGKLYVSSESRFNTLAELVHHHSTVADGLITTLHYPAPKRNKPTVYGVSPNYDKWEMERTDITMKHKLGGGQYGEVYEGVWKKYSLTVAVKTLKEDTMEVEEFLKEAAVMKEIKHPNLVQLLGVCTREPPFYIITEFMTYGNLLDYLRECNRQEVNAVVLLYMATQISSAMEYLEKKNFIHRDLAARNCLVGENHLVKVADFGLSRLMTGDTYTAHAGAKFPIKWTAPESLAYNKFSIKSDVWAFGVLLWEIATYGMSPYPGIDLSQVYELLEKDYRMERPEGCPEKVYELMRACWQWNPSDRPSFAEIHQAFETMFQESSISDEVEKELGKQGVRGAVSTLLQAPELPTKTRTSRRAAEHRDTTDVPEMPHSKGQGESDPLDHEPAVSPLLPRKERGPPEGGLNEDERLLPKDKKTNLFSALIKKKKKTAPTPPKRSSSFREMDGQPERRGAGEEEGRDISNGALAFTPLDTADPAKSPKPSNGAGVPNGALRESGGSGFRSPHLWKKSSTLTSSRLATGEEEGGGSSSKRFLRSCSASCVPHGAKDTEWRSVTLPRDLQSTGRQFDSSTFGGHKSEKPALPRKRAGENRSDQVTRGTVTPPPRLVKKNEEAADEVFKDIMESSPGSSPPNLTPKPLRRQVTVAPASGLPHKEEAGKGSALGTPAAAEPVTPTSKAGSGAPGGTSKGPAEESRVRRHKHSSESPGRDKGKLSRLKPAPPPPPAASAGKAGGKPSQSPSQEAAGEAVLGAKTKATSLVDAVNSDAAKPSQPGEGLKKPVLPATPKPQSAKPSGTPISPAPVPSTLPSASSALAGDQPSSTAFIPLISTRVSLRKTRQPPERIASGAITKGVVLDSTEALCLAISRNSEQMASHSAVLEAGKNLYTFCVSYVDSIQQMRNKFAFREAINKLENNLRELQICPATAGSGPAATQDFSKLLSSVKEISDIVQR

Series 1 — action: agonist
Target: Beta-1 adrenergic receptor (ADRB1, Homo sapiens, UniProt P08588)
Chain of UniProt P08588 (whole entry, looked up): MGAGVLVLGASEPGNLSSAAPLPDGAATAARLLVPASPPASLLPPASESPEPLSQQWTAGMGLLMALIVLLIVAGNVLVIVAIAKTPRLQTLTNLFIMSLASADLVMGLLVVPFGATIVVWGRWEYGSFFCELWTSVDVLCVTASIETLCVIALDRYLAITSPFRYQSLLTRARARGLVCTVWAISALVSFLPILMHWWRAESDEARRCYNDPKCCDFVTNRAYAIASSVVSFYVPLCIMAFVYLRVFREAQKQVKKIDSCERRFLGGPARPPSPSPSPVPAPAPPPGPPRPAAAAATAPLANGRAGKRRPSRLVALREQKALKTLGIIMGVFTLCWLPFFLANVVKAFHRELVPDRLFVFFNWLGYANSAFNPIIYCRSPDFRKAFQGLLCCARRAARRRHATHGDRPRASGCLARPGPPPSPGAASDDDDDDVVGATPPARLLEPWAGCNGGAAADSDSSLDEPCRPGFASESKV
For `CC(C)CN1C(=O)COC[C@@H]1[C@H](O)c1ccc(NC(=O)Cc2ccccc2)cc1`, the EC50 was at least 100 µM.
With `CN(C)c1cccc(NC(=O)Cc2c[nH]c3ncc(-c4cnn(C)c4)cc23)c1` the EC50 was at least 100 µM.
The EC50 of `Cc1cc(C)n(-c2ccc(=O)n(C3CCN(c4ccc5ccccc5n4)CC3)n2)n1` is reported as at least 100 µM.
For `Cc1nn(C)c(C)c1CN(Cc1ccc2c(C)cc(=O)oc2c1)C1CC1`, the EC50 was at least 100 µM.
With `Cc1cc2oc(=O)cc(COn3nnc4ccc(Cl)cc43)c2cc1Cl` the EC50 was at least 100 µM.
With `COc1ccccc1N1CCN(CC(=O)Nc2cc(C)ccc2C)CC1` the EC50 was at least 100 µM.
The EC50 of `O=C(Cn1ncc(=O)c2ccccc21)NCC(O)c1ccc(F)c(F)c1` (stereo not shown) is reported as at least 100 µM.

Series 2 — cell line: HaCaT; concentration: 100 µM; time: 60 h
`COC(=O)[C@@H]1[C@H]2C[C@H]3c4[nH]c5ccccc5c4CCN3C[C@@H]2CC[C@@H]1O` gave a viability of 107%.
With `CC1(C)S[C@@H]2[C@H](NC(=O)C(C(=O)O)c3ccccc3)C(=O)N2[C@H]1C(=O)O` (stereo partly shown) the viability was 145%.
`C[C@H]1C[C@@H]2[C@H]([C@@H](O)C[C@@]3(C)[C@H]2CC[C@]3(O)C(=O)CO)[C@@]2(C)C=CC(=O)C=C12` gave a viability of 126%.
`O=S(=O)(O)CCSSCCS(=O)(=O)O` gave a viability of 143%.
`C=CCN1CCCC1CNC(=O)c1cc2[nH]nnc2cc1OC` (stereo not shown) gave a viability of 121%.
The viability of `COC(=O)c1ccccc1O` is reported as 126%.

Series 3
Structure (SMILES): COc1cc(C(=O)N2CCC(N3CCN(C)CC3)CC2)ccc1Nc1ncc2c(n1)N(C)c1ccccc1C(=O)N2C
It gave -11.4% for inhibition (mouse PKCι and PKCζ; probe labelling, KiNativ ADP probe; mouse brain lysate; 1 µM, LYS1 site IYAMkVVK).
The inhibition was 31.5% (PIK3CA; 1 µM).
The inhibition was -4% (TLK1 and TLK2 human; KiNativ profiling; human PBMC; 1 µM, LYS2 site, with: ADP acyl phosphate probe).
The inhibition was -10% (MST4 (human); probe labelling, KiNativ ATP probe; human PBMC lysate; concentration not given, LYS1 labelled site).
PI4KA (mouse); probe labelling, KiNativ, item: SGTPMQSAAkAPYLAK peptide, ATP site; brain tissue lysate (mouse); 0.1 µM, with: ATP acyl-phosphate probe — inhibition: 2.3%.

Other studies, line by line
`CNC(=O)Nc1ccc2c(c1)CC[C@]21OC(=O)N(CC(=O)N(Cc2ccc(F)cc2)[C@@H](C)C(F)(F)F)C1=O` has a remaining binding of 71% (Tyrosine-protein kinase ABL1 (ABL1, Homo sapiens, UniProt P00519, F317I); KINOMEscan; 1 µM, F317I mutant, nonphosphorylated; baseline: control).

Some of these lines once more (series 1):
The EC50 of `Cc1cc(C)n(-c2ccc(=O)n(C3CCN(c4ccc5ccccc5n4)CC3)n2)n1` is reported as at least 100 µM.
With `Cc1cc2oc(=O)cc(COn3nnc4ccc(Cl)cc43)c2cc1Cl` the EC50 was at least 100 µM.
With `COc1ccccc1N1CCN(CC(=O)Nc2cc(C)ccc2C)CC1` the EC50 was at least 100 µM.
